Assay results from different studies.
Compare with care: the assays were run in different laboratories. Numbers after ± are the reported error.
Cell line: MCF7

| SMILES | assay | setting | IC50 |
| --- | --- | --- | --- |
| CN1C(=O)CS/C1=N\N=C\c1cccc2cc3ccccc3nc12 | cell growth or viability, MTT | 48 h | > 50 µM |
| Nc1ncc(-c2nc(N3CCOCC3)nc(N3CCN(C(=O)CCC(=O)NCCCCCCCNc4cccc5c4C(=O)N(C4CCC(=O)NC4=O)C5=O)CC3)n2)c(C(F)F)n1 (stereo not shown) | inhibitor, In-Cell Western, refers to: Akt pSer473 | 2 h | 0.0441 µM |
| Cn1ncc(-c2ccc3c(=O)[nH]nc(CN)c3c2)c1-c1c(F)c(Cl)cc(OC2CC2)c1C#N | cell viability, inhibitor, CellTiter-Glo | 120 h, baseline-subtracted | 0.005 µM |
| CC(=O)[O][Pd][c]1ccccc1N1N=C(C)C(C)(C)C1=O.CC(=O)[O][Pd][c]1ccccc1N1N=C(C)C(C)(C)C1=O | cell growth or viability, MTT | – | 37.1 µM |
| CCOC(=O)/C=C1\S/C(=N\N=C\c2cccc3cc4ccccc4nc23)N(c2cccc(OC)c2)C1=O | cell growth or viability, MTT | 48 h | > 50 µM |
| O=C(c1ccc(Cl)cc1Cl)N1CCN(CC(OCc2ccc3ccccc3c2)c2ccc(Cl)cc2Cl)CC1 (stereo not shown) | cell growth or viability, MTT | 24 h | 44.5 µM |
| NC(=O)c1ccc(-c2ccccc2Cl)c2c3c([nH]c12)CC[C@@H](N)C3 | cell growth or viability | – | 0.0179 µM |
| COc1ccc(COC[C@](O)(CNCc2ccccc2)[C@@H]2CC[C@@H](C)C[C@H]2OCc2ccc(OC)cc2)cc1 | cell growth or viability, MTT | 72 h | 1.49 µM |
| Cc1ccc2c(Cl)cc(Cl)c([O-])c2n1.Cc1ccc2c(Cl)cc(Cl)c([O-])c2n1.[Co+2].c1ccc(-c2ccccn2)nc1 | cell growth or viability, MTT | 48 h | 10.5 µM |
| O=[N+]([O-])c1ccc(O)c(/C=N/Nc2ccccc2)c1 | cell growth or viability, MTT | 24 h | 14.5 µM |
| CN(C)c1ccc(CCC(=O)N2C(=O)C3(NC(c4ccc(F)cc4)C4(C(=O)Nc5ccccc54)N3Cc3ccc(F)cc3)c3ccccc32)cc1 (stereo not shown) | cell growth or viability, MTT | 48 h | 33.3 µM |
| Cc1c(COc2cc(OCc3cccc(C#N)c3)c(CNCCO)cc2Cl)cccc1-c1cccc(OCCCCCCC(=O)NO)c1 | cell growth or viability, CCK-8 | 48 h | 15.7 µM |
| CN1CCC(N[C@H]2CCc3[nH]c4c(C(N)=O)ccc(-c5ccccc5Cl)c4c3C2)CC1 | cell proliferation | 96 h | 0.261 µM |
| CC1(C)[C@H](NC(=O)c2cnn(CCO)c2)C(C)(C)[C@H]1Oc1ccc(C#N)c(Cl)c1 | cell growth or viability, CCK-8 | 7 days | 4.2 µM |
| CCc1occc(=O)c1[O-].[Cl-].[W+4].c1cc[cH-]c1.c1cc[cH-]c1 | cell growth or viability, MTT | – | 190 µM |
| COc1ccnc(-c2cc(OC)ccn2)c1.[Co+2].[O-]c1c(I)cc(I)c2cccnc12.[O-]c1c(I)cc(I)c2cccnc12 | cell growth or viability, MTT | 48 h | 23.5 µM |
| NC(=S)NN=Cc1ccc([N+](=O)[O-])o1 | cell growth or viability, resazurin | – | 30.8 µM |
| CC(=O)N[C@@H](CCCNC(=N)N)C(=O)N[C@@H](Cc1c[nH]c2ccccc12)C(=O)N[C@@H](CCCNC(=N)N)C(=O)N[C@@H](Cc1c[nH]c2ccccc12)C(=O)N[C@@H](CCCNC(=N)N)C(=O)N[C@@H](Cc1c[nH]c2ccccc12)C(N)=O | cell viability | 48 h, dark | > 100 µM |
| CNS(=O)(=O)Nc1nccc(Cc2c(C)c3ccc(Oc4ncccc4F)cc3oc2=O)c1F | cell viability | 7 days | > 1 µM |
| C#CCNC(=O)[C@@]1(C)C(=O)CC[C@]2(C)[C@H]3C(=O)C=C4[C@@H]5[C@@H](C)[C@H](C)CC[C@]5(C)CC[C@@]4(C)[C@]3(C)CC[C@@H]12 | cell growth or viability, MTT | 24 h | 128 µM |
| Cc1nc(N(C)c2ccc3c(c2)/C(=C/c2ccccc2C)C(=O)N3C)c2ccccc2n1 | cell growth or viability, MTT | – | 2.12 µM |
| C[C@@H]1CC[C@@H]([C@](O)(CNCc2ccc(F)cc2)COCc2ccccc2)[C@H](OCc2ccccc2)C1 | cell growth or viability, MTT | 72 h | 10.4 µM |
| CCC(=CCc1c(O)cc2c(c1O)C(=O)CC(c1cccc(O)c1)O2)CC (stereo not shown) | cell growth or viability, MTT | 48 h | 32.6 µM |

| SMILES | assay | setting | IC50 |
| --- | --- | --- | --- |
| Cc1ccc(CN2C3(NC(c4ccc(C)cc4)C24C(=O)Nc2ccccc24)C(=O)Nc2ccccc23)cc1 (stereo not shown) | cell growth or viability, MTT | 48 h | 60.2 µM |
| O=[N+]([O-])c1ccc(C=NNC(Nc2ccccc2)=[S+][Au-][Cl])o1 | cell growth or viability, resazurin | – | 57.1 µM |
| Cc1ccc2c(Cl)cc(Cl)c([O-])c2n1.Cc1ccc2c(Cl)cc(Cl)c([O-])c2n1.[Co+2].c1ccc(-c2ccnc3c2ccc2c(-c4ccccc4)ccnc23)cc1 | cell growth or viability, MTT | 48 h | 7.95 µM |
| COc1cc(C=O)cc(OS(=O)(=O)Oc2ccc3c(c2)CC[C@@H]2[C@@H]3CC[C@]3(C)C(=O)CC[C@@H]23)c1OC | – | 72 h | 14.3 µM |
| CCCN1C(=O)CS/C1=N\N=C\c1cccc2cc3ccccc3nc12 | cell growth or viability, MTT | 48 h | > 50 µM |
| Clc1ccc(COC(Cn2cnc3ccccc32)c2ccc(Cl)cc2Cl)cc1 (stereo not shown) | cell growth or viability, MTT | 24 h | 47.2 µM |
| Nc1ncc(-c2nc(N3CCOCC3)nc(N3CCN(C(=O)CCC(=O)NCCCCCCNc4cccc5c4C(=O)N(C4CCC(=O)NC4=O)C5=O)CC3)n2)c(C(F)F)n1 (stereo not shown) | inhibitor, In-Cell Western, refers to: Akt pSer473 | 2 h | 0.0673 µM |
| Clc1ccc(C(Cn2ccnc2)OCc2ccc(Br)cc2)c(Cl)c1 (stereo not shown) | cell growth or viability, MTT | 24 h | > 50 µM |
| Nc1ncc(-c2nc(N3CCOCC3)nc(N3CCN(C(=O)CCC(=O)N4CCC(CC5CCN(c6cc7c(cc6F)C(=O)N(C6CCC(=O)NC6=O)C7=O)CC5)CC4)CC3)n2)c(C(F)F)n1 (stereo not shown) | inhibitor, In-Cell Western, refers to: Akt pSer473 | 2 h | 0.0089 µM |
| C=CCc1c(O)cc2c(c1O)C(=O)CC(c1ccc(O)cc1)O2 (stereo not shown) | cytotoxicity, MTT | 48 h, as reported | > 100 µM |
| Clc1ccc(C(Cn2ccnc2)OCc2ccc3ccccc3c2)c(Cl)c1 (stereo not shown) | cell growth or viability, MTT | 24 h | 48.1 µM |
| CCC(=CCc1c(O)cc2c(c1O)C(=O)CC(c1ccccc1O)O2)CC (stereo not shown) | cytotoxicity, MTT | 48 h, as reported | 70.5 ± 8.2 µM |
| COc1ccc(N2C(=O)CS/C2=N\N=C\c2cccc3cc4ccccc4nc23)cc1 | cell growth or viability, MTT | 48 h | > 50 µM |
| O=C(CCc1ccccc1)N1C(=O)C2(NC(c3ccc(F)cc3)C3(C(=O)Nc4ccccc43)N2Cc2ccc(F)cc2)c2ccccc21 (stereo not shown) | cell growth or viability, MTT | 48 h | 31.7 µM |
| Cc1nc(Nc2ccc3c(c2)/C(=C/c2cn(C)c4ccccc24)C(=O)N3C)c2ccccc2n1 | cell growth or viability, MTT | – | 0.69 µM |
| c1ccc2nc3c4cccnc4c4ncccc4c3nc2c1 | cell growth or viability, MTT | 48 h | > 50 µM |
| COc1ccc(C2CC(=O)c3c(cc(O)c(CC=C(C)C)c3O)O2)cc1 (stereo not shown) | cytotoxicity, MTT | 48 h, sigmoidal fit | 109 µM |
| Cc1c(COc2cc(OCc3cccc(C#N)c3)c(CNC(CO)(CO)CO)cc2Cl)cccc1-c1cccc(OCCCCCC(=O)NO)c1 | cell growth or viability, CCK-8 | 48 h | 5.95 µM |
| Clc1ccc(COC(Cn2cncn2)c2ccc(Cl)cc2Cl)cc1 (stereo not shown) | cell growth or viability, MTT | 24 h | 45.6 µM |
| CC(C)c1ccc(N(C)c2ccc3c(c2)OCC[C@H]3CNc2cnccc2C(=O)O)cc1 | cell growth or viability, MTS | 7 days | 0.037 µM |
| O=C(c1cccnc1)N1CCN(CC(OCc2ccc3ccccc3c2)c2ccc(Cl)cc2Cl)CC1 (stereo not shown) | cell growth or viability, MTT | 24 h | 29.7 µM |
| O=C1/C(=N\c2ccc(Cl)cc2Br)c2ccccc2N1Cc1ccccc1 (mixture of isomers) | cell growth or viability, MTT | 48 h | 13.1 µM |
| COc1ccccc1CNC[C@](O)(COCc1ccccc1)[C@@H]1CC[C@@H](C)C[C@H]1OCc1ccccc1 | cell growth or viability, MTT | 72 h | 1.78 µM |

For quick reference, copied from above:
| SMILES | assay | setting | IC50 |
| --- | --- | --- | --- |
| CN1C(=O)CS/C1=N\N=C\c1cccc2cc3ccccc3nc12 | cell growth or viability, MTT | 48 h | > 50 µM |
| Nc1ncc(-c2nc(N3CCOCC3)nc(N3CCN(C(=O)CCC(=O)NCCCCCCCNc4cccc5c4C(=O)N(C4CCC(=O)NC4=O)C5=O)CC3)n2)c(C(F)F)n1 (stereo not shown) | inhibitor, In-Cell Western, refers to: Akt pSer473 | 2 h | 0.0441 µM |
| Cn1ncc(-c2ccc3c(=O)[nH]nc(CN)c3c2)c1-c1c(F)c(Cl)cc(OC2CC2)c1C#N | cell viability, inhibitor, CellTiter-Glo | 120 h, baseline-subtracted | 0.005 µM |
| CC(=O)[O][Pd][c]1ccccc1N1N=C(C)C(C)(C)C1=O.CC(=O)[O][Pd][c]1ccccc1N1N=C(C)C(C)(C)C1=O | cell growth or viability, MTT | – | 37.1 µM |
| CCOC(=O)/C=C1\S/C(=N\N=C\c2cccc3cc4ccccc4nc23)N(c2cccc(OC)c2)C1=O | cell growth or viability, MTT | 48 h | > 50 µM |
| O=C(c1ccc(Cl)cc1Cl)N1CCN(CC(OCc2ccc3ccccc3c2)c2ccc(Cl)cc2Cl)CC1 (stereo not shown) | cell growth or viability, MTT | 24 h | 44.5 µM |
